Results from different studies.
Numbered parts are unrelated; each lists some results of a single study. Positions count from the first letter of the parent shown.

Series 1
Target: CCND1, cyclin fold, Cln2 fusion (human)
Technique: yeast growth competition, sequencing
Matrix: yeast
Notes: weak parent motif
Relative to: not given
Direction: higher = stronger binding
Parent: SLBP docking peptide (human); ARYKRKLLINDFG
Substitution | normalised enrichment score
L8N | -0.0175
L7P | 0.0807
K4D | 0.0461
I9H | 0.165
F12M | -0.393
K6R | -0.392
Y3L | 0.711
D11Y | 0.993

Series 2
Target: Ras GTPase-activating protein-binding protein 1, C-terminal RGG region (G3BP1, Homo sapiens, UniProt Q13283)
UniProt Q13283, sequence (whole entry, looked up): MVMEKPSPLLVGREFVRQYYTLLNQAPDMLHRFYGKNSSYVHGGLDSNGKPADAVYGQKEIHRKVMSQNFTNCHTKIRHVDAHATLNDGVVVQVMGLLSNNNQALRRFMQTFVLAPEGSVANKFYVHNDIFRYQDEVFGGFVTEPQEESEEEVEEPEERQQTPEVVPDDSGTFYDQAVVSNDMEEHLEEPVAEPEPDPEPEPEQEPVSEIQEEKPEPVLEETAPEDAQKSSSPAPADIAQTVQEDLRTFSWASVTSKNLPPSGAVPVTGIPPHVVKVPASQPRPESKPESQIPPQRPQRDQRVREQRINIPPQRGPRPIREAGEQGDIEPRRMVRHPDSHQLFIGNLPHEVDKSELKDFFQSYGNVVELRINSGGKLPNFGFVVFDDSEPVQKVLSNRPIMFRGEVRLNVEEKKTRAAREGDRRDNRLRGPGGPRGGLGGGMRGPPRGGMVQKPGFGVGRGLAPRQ
Technique: RNA Bind-n-Seq
Molecule type: RNA
Matrix: in vitro
Tested at: 1 µM
Notes: whole 134-nt RNA, ends assumed
Together with: 150 mM KCl
Relative to: input library
Direction: higher = stronger binding
All sequences stand within: GGGAGUUCUACAGUCCGACGAUC … UGGAAUUCUCGGGUGUCAAGG
Sequence | log2 enrichment
GUCCUGUGCUACACAUCGUAUGUACCGAAUCGGGGUUUGGGGAAAGGGGUUUUUGGGGAAAGUAUUAUGUUACGCCGUUCGGAUCUGCAC | 3.27
UUGCGGCAGCCGCCCCCUUCUGCGCGGUCACGCCGAGCCAGCGCCUGGGCCUGGAACCGGGCCGUAGCCCCCCCAGUUUCGCCCACCACC | -0.255
UGGCCCUGGAGGCAUGCGGGGAGGAAGAGGUGGCCUCAUGGAUCGUGGUGGUCCCGGUGGAAUGUUCAGAGGUGGCCGUGGUGGAGACAG | 2.06
UGGUGGACCCGCAGCAGCUGGGCAUGUUCACGGAGGGCGAGCUGAUGUCGGUGGGUAUGGACACGUUCAUCCACCGCAUCGACUCCACCG | -1.64
UCAAGUCCUGUGCUACACAUCGUAUGUACCGAAUCGGGAAAGGAAAGGGAAAGGAAAGUAUUAUGUUACGCCGUUCGGAUCUGCACUUCC | -1.54
ACCAUGCAGGUGGGCAUCUUUGGGAAGUGGGGCAAGGGGGGGAUAGGGAGGGGGGUAACACUUUGGGAACAAAAGGUCCCAGGUCGUUUC | -0.0906
GUCCUGUGCUACACAUCGUAUGUACCGAAUCGGGGUUUGGGGAAAAAGGGGUUUGGGGAAAGUAUUAUGUUACGCCGUUCGGAUCUGCAC | 3.06
UAACUUUAGAGGAGGAUCUGAUGGAUAUGGCAGUGGACGUGGAUUUGUGGAUGGCUAUAAUGGGUAUGGAGGAGGACCUGGAGGUGGCAA | -0.948
ACUAUGCAGGUGGGCAUCUUUGGGAAGUGGGGCAAGGGGGGGAUAGGGAGGGGGGUAACACUUUGGGAACAGGUGGUCCCAGGUCGUUUC | -0.658

Series 3
Target: Histone acetyltransferase KAT6A, winged helix 1, GST fusion (KAT6A, Homo sapiens, UniProt Q92794, residues 1-85)
Technique: protein binding microarray
Molecule type: double-stranded DNA, one strand shown
Matrix: in vitro
Tested at: not given
Notes: 8-mer, flanks averaged, mean of 2 arrays, mostly near background
Relative to: not given
Direction: higher = stronger binding
Residues (chain): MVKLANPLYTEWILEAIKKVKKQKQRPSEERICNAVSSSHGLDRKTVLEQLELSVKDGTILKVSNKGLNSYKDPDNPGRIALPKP
Sequence | E-score
CAGCGGCC | 0.371
AACCTACC | -0.152
GCGAAGCA | 0.0655
CAGAACTC | -0.134
GTACTGAC | 0.12
AATGTTTA | -0.166
CAAGGCTG | -0.243
CTCGGGGC | 0.169

Mixed results
Substance | target | test | test system | setting | how to read | measurement | result
PhoQ, residues 284 288 289 292 302 303 SLSLLA | PhoP, residues 12 14 15 18 19 SEGLL (Escherichia coli, UniProt P23836) | Sort-seq, item: YFP reporter | E. coli | PhoQ-PhoP variant library, together with: 10 µM Mg2+ | relative to: high Mg2+ state, higher = stronger signaling | fold induction | 6.22

Some of these lines once more (series 3):
Sequence | E-score
GCGAAGCA | 0.0655
CAGAACTC | -0.134
GTACTGAC | 0.12
